Measured values gathered from unrelated publications.
Every numbered part comes from another study and shows a few of its results, in no order. Changes are numbered by the printed parent chain.

Block 1 — target: CCNB2, cyclin fold, Cln2 fusion (human); technique: yeast growth competition, sequencing; matrix: yeast; notes: weak parent motif; baseline: not given; reading: higher = stronger binding
Starting sequence: SLBP docking peptide (human); ARYKRKLLINDFG
Variant | normalised enrichment score
ARIKRKLLINDFG [Y3I] | 0.482
ARYKRKLSINDFG [L8S] | 0.439
ARYKAKLLINDFG [R5A] | 0.474
ALYKRKLLINDFG [R2L] | 0.798
ARYKRKLLINDFI [G13I] | 0.317
ARYKRKLLINMFG [D11M] | 1.04
ARYKRKLLWNDFG [I9W] | 0.849
ARYKRKFLINDFG [L7F] | 0.641
ARYKRTLLINDFG [K6T] | 0.654
ARYKRKLTINDFG [L8T] | 0.583
NRYKRKLLINDFG [A1N] | 0.649
ARYKIKLLINDFG [R5I] | 0.371
ARYRRKLLINDFG [K4R] | 0.668

Block 2 — technique: protein binding microarray; form: double-stranded DNA, one strand shown; matrix: in vitro; concentration: not given; baseline: not given; reading: higher = stronger binding
Target: Histone acetyltransferase KAT6A, both winged helices, GST fusion (KAT6A, Homo sapiens, UniProt Q92794, residues 1-181)
Notes: 8-mer, flanks averaged, mean of 2 arrays, mostly near background
Target sequence (chain): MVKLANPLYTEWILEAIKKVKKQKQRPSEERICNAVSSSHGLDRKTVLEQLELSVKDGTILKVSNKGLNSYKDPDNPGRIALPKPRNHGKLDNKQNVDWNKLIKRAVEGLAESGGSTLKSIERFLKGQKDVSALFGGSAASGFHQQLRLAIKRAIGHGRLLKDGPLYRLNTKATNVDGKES
Oligonucleotide | E-score
ATACTATA | -0.0266
TGGGGACA | -0.262
CTTAGACC | -0.0504
ACATATCA | -0.0762
TACTATAA | -0.074
CAGGGAAG | -0.189
CCCAGTGC | -0.188
AGCCCAAA | -0.136
ACTTATGG | -0.084
ACGTCGCT | 0.106
GATTGCAA | -0.0312
TAATTCAA | 0.0067
ACGCGTCC | 0.257
AATGACTG | -0.17
AAGAGGGC | 0.0642
CAAGAAAG | -0.25
CAGTCGGA | 0.0698
CGCGAGCA | 0.126
AGTCGCTG | 0.0122
TCACCTAA | -0.0453
GCCCTCAA | -0.134
CCAATGCG | 0.164
CACGTATA | 0.0394
CACTACTC | -0.0582
ACGTTACG | 0.0821

Block 3 — technique: DHFR PCA, deep sequencing; matrix: yeast; together with: (+)-ABA 0.032 µM; baseline: wild-type fitted maximum; reading: higher = stronger binding
Target: ABI1, truncated, D143A, DHFR fusion (Arabidopsis thaliana)
Notes: methotrexate growth selection, single substitutions
Starting sequence: PYL1, truncated, DHFR fusion (Arabidopsis thaliana); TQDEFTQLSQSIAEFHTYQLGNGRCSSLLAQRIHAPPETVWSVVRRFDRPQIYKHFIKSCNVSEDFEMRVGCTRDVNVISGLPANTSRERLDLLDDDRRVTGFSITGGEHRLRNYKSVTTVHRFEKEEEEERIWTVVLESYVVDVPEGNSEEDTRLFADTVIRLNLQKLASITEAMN
Variant | relative binding score [%]
A170S | -4.98
A30F | 18.6
S140A | 3.49
E152G | 2.11
S42A | 26.4
Y18A | 1.21
Y53I | -3.19
R99S | 3.69
T120G | -1.84
C60K | -6.91
D3C | 17.9
R45T | 1.57
T1M | 22.5
A84L | 20.5
F103E | 2.9
T154C | -3.62
L28I | 64
S26G | 14.3

Block 4 — target: UBE2H UBC core domain (UniProt P62256); technique: yeast two-hybrid; matrix: yeast; notes: mostly zero background; baseline: not given; reading: higher = stronger interaction
UniProt P62256, sequence (whole entry, looked up): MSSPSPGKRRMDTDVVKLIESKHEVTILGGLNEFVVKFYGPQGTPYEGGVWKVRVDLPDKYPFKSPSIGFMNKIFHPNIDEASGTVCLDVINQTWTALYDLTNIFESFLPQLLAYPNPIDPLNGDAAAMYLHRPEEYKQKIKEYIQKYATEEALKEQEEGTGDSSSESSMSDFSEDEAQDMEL
B1: TRIM35 RING domain (UniProt Q9UPQ4); chain PSRSFKEELLCAVCYDPFRDAVTLRCGHNFCRGCVSRCWEVQVSPTCPVCKDRASPADLRT
B2: NSMCE1 RING domain (UniProt Q8WV22); chain RETYPDAVKICNICHSLLIQGQSCETCGIRMHLPCVAKYFQSNAEPRCPHCNDYWPHEIPKV
B3: MSL2 RING domain (UniProt Q9HCI7); chain LLPYFRQSLSCCVCGHLLQDPIAPTNSTCQHYVCKTCKGKKMMMKPSCSWCKDYEQFEENKQ
B4: TRIM10 RING domain (UniProt Q9UDY6); chain SVTSLADEVNCPICQGTLREPVTIDCGHNFCRACLTRYCEIPGPDLEESPTCPLCKEPFRPGSFRP
Sequence | lacZ reporter activity
B1 (TRIM35 RING domain) | 0
LKQVSIRENCCSLCCDEVADTQLKPCGHSDLCMDCALQLETCPLCRKEIVSRIRQI (RSPRY1 RING domain (UniProt Q96DX4)) | 0
B2 (NSMCE1 RING domain) | 0
MANWVFCNRCFQPPHRTSCFSLTNCGHVYCDACLGKGKKNECLICKAPCRTVLLSK (RNF212 RING domain (UniProt Q495C1)) | 0
QLQDEEDDSLCRICMDAVIDCVLLECGHMVTCTKCGKRMSECPICRQYVVRAVHVF (RNF34 RING domain (UniProt Q969K3)) | 0
B3 (MSL2 RING domain) | 0
B4 (TRIM10 RING domain) | 0

Repeated from above (block 3):
Variant | relative binding score [%]
D3C | 17.9
S140A | 3.49
S42A | 26.4
